Measurements gathered from unrelated publications.
Compare with care: the assays were run in different laboratories. Numbers after ± are the reported error.
ESR1: Estrogen receptor (ESR1, Homo sapiens, UniProt P03372)
RORC: Nuclear receptor ROR-gamma (RORC, Homo sapiens, UniProt P51449)

COc1ccc(-c2cc(=O)c3c(O)cc(O[C@@H]4O[C@H](CO)[C@@H](O)[C@H](O)[C@H]4O[C@@H]4O[C@@H](C)[C@H](O)[C@@H](O)[C@H]4O)cc3o2)cc1O
EC50 (ESR1; array formation, agonist; ERα-GFP PRL-HeLa; 1 h): 23 nM

O=S(=O)(c1cccc(C(F)(F)F)c1)N1c2cc(OCc3c(F)cccc3Cl)ccc2CC1C(F)(F)F (stereo not drawn)
EC50 (RORC; reporter gene, agonist, GAL4 luciferase reporter; with: ursolic acid 2 µM): 180 ± 30 nM

O=C1Nc2c(ccc(Cl)c2Cl)C1=NO
EC50 (KCNN4/CALM1 (Homo sapiens, UniProt O15554+P0DP23, L185A); ion current, activator, whole-cell patch clamp): 1270 nM

Cn1cc2c(C(=O)O)ccc(NS(=O)(=O)c3ccc(OCC4CCC4)c(Cl)c3)c2n1
EC50 (CNR1 (Homo sapiens, UniProt P21554); antagonist): > 10000 nM

Cn1cc(-c2cnc(N)n3nc(-c4ccco4)nc23)ccc1=O
EC50 (ADORA2B (Homo sapiens, UniProt P29275)): > 100000 nM

O=S(=O)(c1cccc(C(F)(F)F)c1)N1CCc2ccc(OCc3c(Cl)cncc3Cl)cc21
EC50 (RORC; reporter gene, agonist, GAL4 luciferase reporter; with: ursolic acid 2 µM): 450 ± 100 nM

O=c1c(-c2ccc(O[C@@H]3O[C@H](CO)[C@@H](O)[C@H](O)[C@H]3O)cc2)coc2cc(O)cc(O)c12
EC50 (ESR1; array formation, agonist; ERα-GFP PRL-HeLa; 1 h): 819 nM

COc1ccccc1COc1ccc2c(c1)N(S(=O)(=O)c1cccc(C(F)(F)F)c1)CC2
EC50 (RORC; IL-17 production, inverse agonist; HEK-293T; with: ursolic acid): 110 nM

COc1c(O)cc2oc(-c3ccc(O)cc3)cc(=O)c2c1O
EC50 (GABRA1 (Homo sapiens, UniProt P14867, G251D); Western blot, refers to: GABRA1 G251D protein level; HEK293T stably expressing α1 G251D; 24 h): 6200 ± 400 nM

CN1CCC(c2c(O)cc(O)c3c(=O)cc(-c4ccccc4Cl)oc23)C1CO (stereo not drawn)
EC50 (ESR1; array formation, agonist; ERα-GFP PRL-HeLa; 1 h): 2790 nM

CC(=O)c1cc([N+](=O)[O-])c(Sc2cccc(Cl)c2Cl)s1
EC50 (SENP1 (Homo sapiens, UniProt Q9P0U3); enzyme activity, inhibitor): > 50000 nM

O=c1cc(-c2ccc(O)cc2)oc2c([C@@H]3O[C@H](CO)[C@@H](O)[C@H](O)[C@H]3O)c(O)cc(O)c12
EC50 (ESR1; array formation, agonist; ERα-GFP PRL-HeLa; 1 h): 911 nM

CCCCC[C@H](O)/C=C/[C@H]1[C@H](O)CC(=O)[C@@H]1C/C=C\CCCC(=O)O
EC50 (PTGER1 (Homo sapiens, UniProt P34995, G92S); IP1 accumulation, agonist; AD293; EP1 G92S mutant): 2.62 nM

COc1cc(F)c([C@@H]2CNC(=O)[C@H]2NC(=O)Nc2ccccc2)c(F)c1
EC50 (Formyl peptide receptor 2 (Rattus norvegicus, UniProt A0A8I6AM80); β-arrestin1 recruitment, agonist, BRET; HEK293 expressing rat FPR2): 47 nM

COc1cccc(S(=O)(=O)N2CCc3ccc(OCc4c(F)cccc4Cl)cc32)c1
EC50 (RORC; reporter gene, agonist, GAL4 luciferase reporter; with: ursolic acid 2 µM): 650 ± 210 nM

CCCCCCCP(=O)(C(C)C)C(C)C
EC50 (Trpm8 (Rattus norvegicus, UniProt Q8R455); calcium influx, agonist, calcium fluorescence imaging; 32 °C): 2240 ± 690 nM

O=C1C[C@@H](c2ccc(O[C@@H]3O[C@H](CO)[C@@H](O)[C@H](O)[C@H]3O)cc2)Oc2cc(O)ccc21
EC50 (ESR1; array formation, agonist; ERα-GFP PRL-HeLa; 1 h): 2670 nM

COc1cccnc1COc1ccc2c(c1)N(S(=O)(=O)c1cccc(C(F)(F)F)c1)CC2
EC50 (RORC; reporter gene, agonist, GAL4 luciferase reporter; with: ursolic acid 2 µM): 480 ± 130 nM

O=c1cc(-c2ccccc2)oc2cc(O)ccc12
EC50 (ESR1; array formation, agonist; ERα-GFP PRL-HeLa; 1 h): 155 nM

Cc1nn(-c2nc3ccccc3s2)c(O)c1C(c1ccccc1C(=O)O)c1c(C)nn(-c2nc3ccccc3s2)c1O
EC50 (Cyclic GMP-AMP synthase, catalytic domain; with DNA (CGAS, Homo sapiens, UniProt Q8N884); liquid phase condensation, inhibitor): 300 nM

CC(C)=CCc1cc(-c2coc3cc(O)ccc3c2=O)ccc1O
EC50 (ESR1; array formation, agonist; ERα-GFP PRL-HeLa; 1 h): 4920 nM

CC(Oc1ccc2c(c1)N(S(=O)(=O)c1cccc(C(F)(F)F)c1)CC2)c1c(F)cccc1Cl (stereo not drawn)
EC50 (RORC; reporter gene, agonist, GAL4 luciferase reporter; with: ursolic acid 2 µM): 750 ± 250 nM

CCC(C)(C)C(=O)C(=O)N1CCCC[C@H]1C(=O)N[C@H](CCc1ccc(OC)cc1)C(=O)N1[C@@H]2CC[C@H]1C[C@H](Nc1nc(NCCc3sc(N)nc3C)nc(N3CCn4ncnc4C3)n1)C2
EC50 (Autophagy-related protein 16-1 (ATG16L1, Homo sapiens, UniProt Q676U5); protection from caspase-3 cleavage, AlphaLISA): 11500 nM

O=S(=O)(c1cccc(C(F)(F)F)c1)N1CCc2ccc(OCc3ccccc3OC(F)(F)F)cc21
EC50 (RORC; reporter gene, agonist, GAL4 luciferase reporter; with: ursolic acid 2 µM): 1200 ± 240 nM

COc1c(O)cc2oc3cc(O)c(CC=C(C)C)c(O)c3c(=O)c2c1CCC(C)(C)O
EC50 (Cyclin-dependent kinase 2, with cyclin E1 (CDK2, Homo sapiens, UniProt P24941); kinase activity, inhibitor): 28200 nM

O=C(/C=C/c1ccccc1)c1ccccc1
EC50 (ESR1; array formation, agonist; ERα-GFP PRL-HeLa; 1 h): 523 nM

O=S(=O)(c1cccc(C(F)(F)F)c1)N1CCc2ccc(OCc3c(Cl)cncc3C(F)(F)F)cc21
EC50 (RORC; reporter gene, agonist, GAL4 luciferase reporter; with: ursolic acid 2 µM): 600 ± 110 nM
